Published values gathered from unrelated publications.
Lines come from different studies, so protocols differ.
Organism: Bacillus subtilis

Compound | assay | system | setting | MIC
CN[C@H](CC(C)C)C(=O)N[C@H]1C(=O)N[C@@H](CC(N)=O)C(=O)N[C@H]2C(=O)N[C@H]3C(=O)N[C@H](C(=O)N[C@H](C(=O)O)c4cc(O)cc(O)c4-c4cc3ccc4O)[C@H](O)c3ccc(c(Cl)c3)Oc3cc2cc(c3O[C@@H]2O[C@H](CO)[C@@H](O)[C@H](O)[C@H]2O[C@H]2C[C@](C)(NCc3ccc(OCc4cn(CC(=O)N[C@H](C(=O)N[C@@H](CCN)C(=O)N[C@H]5CCNC(=O)[C@H]([C@@H](C)O)NC(=O)[C@H](CCN)NC(=O)[C@H](CCN)NC(=O)[C@H](CC(C)C)NC(=O)[C@@H](CC(C)C)NC(=O)[C@H](CCN)NC5=O)[C@@H](C)O)nn4)c(OC)c3)[C@H](O)[C@H](C)O2)Oc2ccc(cc2Cl)[C@H]1O | broth microdilution | 168, cation-adjusted Mueller-Hinton broth | – | 0.095 µM
CC[C@H]1OC(=O)[C@H](C)[C@@H](OC(=O)Cc2ccccc2)[C@H](C)[C@@H](O[C@@H]2O[C@H](C)C[C@H](N(C)C)[C@H]2O)[C@](C)(OC)C[C@@H](C)C(=O)[C@H](C)[C@@H](O)[C@]1(C)O | microbial growth | DSM402 | – | 2 µg/mL
CN[C@H](CC(C)C)C(=O)N[C@H]1C(=O)N[C@@H](CC(N)=O)C(=O)N[C@H]2C(=O)N[C@H]3C(=O)N[C@H](C(=O)N[C@H](C(=O)O)c4cc(O)cc(O)c4-c4cc3ccc4O)[C@H](O)c3ccc(c(Cl)c3)Oc3cc2cc(c3O[C@@H]2O[C@H](CO)[C@@H](O)[C@H](O)[C@H]2O[C@H]2C[C@](C)(NCc3ccc(OCc4cn(CCCCC(=O)N[C@H](C(=O)N[C@@H](CCN)C(=O)N[C@H]5CCNC(=O)[C@H]([C@@H](C)O)NC(=O)[C@H](CCN)NC(=O)[C@H](CCN)NC(=O)[C@H](CC(C)C)NC(=O)[C@@H](CC(C)C)NC(=O)[C@H](CCN)NC5=O)[C@@H](C)O)nn4)c(OC)c3)[C@H](O)[C@H](C)O2)Oc2ccc(cc2Cl)[C@H]1O | broth microdilution | 168, cation-adjusted Mueller-Hinton broth | – | 0.093 µM
CC[C@H](C)[C@H](N)C(=O)N[C@@H](CCCNC(=N)N)C(=O)N[C@H](C(=O)N[C@@H](Cc1c[nH]c2ccccc12)C(=O)N[C@@H](CCCCN)C(=O)N[C@@H](CCCCN)C(=O)N[C@H](C(=O)N[C@H](C(=O)N[C@@H](CCCNC(=N)N)C(=O)N[C@@H](CCCCN)C(=O)N[C@@H](Cc1c[nH]c2ccccc12)C(=O)N[C@@H](CCCCN)C(=O)N[C@@H](C)C(=O)N[C@H](C(=O)N[C@@H](Cc1c[nH]c2ccccc12)C(=O)N[C@@H](Cc1c[nH]cn1)C(N)=O)[C@@H](C)CC)C(C)C)[C@@H](C)CC)C(C)C | broth dilution | KCTC 3068 | – | 50 µM
CC[C@H](C)[C@H](NC(=O)[C@@H](CCC(=O)O)NC(=O)[C@H](CC(C)C)NC(=O)c1cccc(-c2ccccn2)n1)C(=O)N[C@H]1CCCCNC(=O)[C@H](CC(N)=O)NC(=O)[C@@H](CC(=O)O)NC(=O)[C@H](Cc2c[nH]cn2)NC(=O)[C@@H](Cc2ccccc2)NC(=O)[C@H]([C@@H](C)CC)NC(=O)[C@@H](CCCN)NC1=O | – | 168 | 18 h, 37 °C, 0.3 mM ZnSO4 LB | > 64 µg/mL
CC(=O)N[C@@H](CC(C)C)C(=O)N[C@H]1CSSC[C@@H](C(=O)N2CCC[C@H]2C(N)=O)NC(=O)[C@H]([C@@H](C)O)NC(=O)[C@H](C(C)C)NC(=O)[C@H]([C@@H](C)O)NC(=O)[C@H](CCCCN)NC(=O)[C@H](CC(C)C)NC(=O)[C@H](Cc2ccccc2)NC(=O)[C@H](Cc2ccc(O)cc2)NC(=O)[C@H](CC(C)C)NC(=O)[C@H](CCCCN)NC(=O)[C@H](Cc2ccccc2)NC(=O)[C@H](CCCNC(=N)N)NC(=O)[C@H](CCC(N)=O)NC(=O)[C@H](CC(C)C)NC(=O)[C@H](CCCCN)NC(=O)[C@@H]2CCCN2C(=O)[C@H](CCCCN)NC(=O)[C@H](C(C)C)NC(=O)[C@H](CC(N)=O)NC(=O)[C@H](Cc2ccc(O)cc2)NC(=O)[C@H]([C@@H](C)O)NC1=O | broth dilution | CGMCC strain | 24 h | 2.5 to 5 µM
CCCCCCCCCc1nc2cc(Cl)ccc2c(=O)n1CCN | – | 168 | – | 12.5 µM
CC[C@H](C)[C@H](NC(=O)[C@H](Cc1c[nH]c2ccccc12)NC(=O)[C@H](CCCCN)NC(=O)[C@H](CC(C)C)NC(=O)[C@@H](NC(=O)[C@@H](NC(=O)CNC(=O)[C@H](CCCCN)NC(=O)[C@H](Cc1c[nH]cn1)NC(=O)[C@H](CCCCN)NC(=O)[C@H](Cc1c[nH]c2ccccc12)NC(=O)[C@H](C)NC(=O)[C@H](CC(C)C)NC(=O)[C@H](CO)NC(=O)[C@@H](NC(=O)[C@H](Cc1ccc(O)cc1)NC(=O)[C@H](CCCCN)NC(=O)[C@H](CCC(N)=O)NC(=O)CNC(=O)[C@H](CCCCN)NC(=O)[C@@H](NC(=O)[C@H](C)NC(=O)[C@H](CC(C)C)NC(=O)[C@H](Cc1ccccc1)NC(=O)[C@H](CCC(N)=O)NC(=O)[C@@H](NC(=O)[C@H](CC(C)C)NC(=O)[C@H](CCCCN)NC(=O)[C@H](CCSC)NC(=O)[C@H](Cc1ccccc1)NC(=O)[C@H](C)NC(=O)[C@H](C)NC(=O)[C@@H](N)CCSC)[C@@H](C)CC)[C@@H](C)O)C(C)C)[C@@H](C)O)[C@@H](C)CC)C(=O)N[C@@H](CC(N)=O)C(N)=O | broth microdilution | ATCC 6633 | 24 h, 37 °C | 6 µg/mL
CC[C@H](C)[C@H](N)C(=O)N[C@@H](CCCNC(=N)N)C(=O)N[C@H](C(=O)N[C@@H](Cc1c[nH]c2ccccc12)C(=O)N[C@@H](Cc1ccccc1)C(=O)N[C@H](C(=O)N[C@@H](CCCCN)C(=O)N[C@H](C(=O)N[C@@H](CCCNC(=N)N)C(=O)N[C@@H](CCCCN)C(=O)N[C@@H](CCSC)C(=O)N[C@@H](CCCCN)C(=O)N[C@@H](C)C(=O)N[C@H](C(=O)N[C@@H](Cc1ccc(O)cc1)C(=O)N[C@@H](Cc1c[nH]cn1)C(=O)N[C@H](C(N)=O)[C@@H](C)O)[C@@H](C)CC)C(C)C)[C@@H](C)CC)C(C)C | broth dilution | KCTC 3068 | – | 3.1 µM

For quick reference, copied from above:
Compound | assay | system | setting | MIC
CC[C@H](C)[C@H](NC(=O)[C@@H](CCC(=O)O)NC(=O)[C@H](CC(C)C)NC(=O)c1cccc(-c2ccccn2)n1)C(=O)N[C@H]1CCCCNC(=O)[C@H](CC(N)=O)NC(=O)[C@@H](CC(=O)O)NC(=O)[C@H](Cc2c[nH]cn2)NC(=O)[C@@H](Cc2ccccc2)NC(=O)[C@H]([C@@H](C)CC)NC(=O)[C@@H](CCCN)NC1=O | – | 168 | 18 h, 37 °C, 0.3 mM ZnSO4 LB | > 64 µg/mL
